Experimental data from different studies.
Nos2: Nitric oxide synthase, inducible (Nos2, Mus musculus, UniProt P29477)
Tmem97: Sigma intracellular receptor 2 (Tmem97, Rattus norvegicus, UniProt Q5U3Y7)

SMILES | target | assay | system | conditions | how to read | selectivity ratio
Cc1cc(N)nc(C[C@@H]2CNC[C@@H]2OCCC/C=C/c2cccc(F)c2)c1 | Nos2 | enzyme activity, inhibitor |  |  | baseline: Ki Nos2 over Ki nNOS | 55
C#CCOC(=O)[C@@]1(C)C=C(C(=O)Nc2cccc(C(=O)Nc3ccc(C)c(Nc4nccc(-c5cccnc5)n4)c3)c2)C(=O)CC1 | MAPK9 (Homo sapiens, UniProt P45984) |  |  |  | baseline: JNK1 over MAPK9 | 10 fold
COc1ccc(CCCN[C@@H]2CCC[C@H]2CN[C@@H]2CCC[C@H]2CNCCCCN[C@H]2CCC[C@@H]2CN)cc1 | KDM1B (Homo sapiens, UniProt Q8NB78) | peroxidase-coupled |  |  | baseline: Ki for KDM1B over Ki for LSD1 | 3.1
CCOc1cncc(-c2ccc(NC(=O)C(CC)c3ccnc(NS(=O)(=O)C4CC4)n3)nc2)n1 (centres unmarked) | Ctps1 (Mus musculus, UniProt P70698) | enzyme activity | mouse |  | baseline: CTPS2 over target IC50 | 5
COc1c(OC2OC(CO)C(O)C(O)C2O)cc2c(c1O)C(=O)c1c(cc(C)c(O)c1OC)C2=O (centres unmarked) | MAOA (Homo sapiens, UniProt P21397) |  |  |  | baseline: IC50 MAO-B over MAO-A | 4.57
Cc1cc(N)nc(C[C@@H]2CNC[C@@H]2OCCCCOc2cc(F)cc(Cl)c2)c1 | Nos2 | enzyme activity, inhibitor |  |  | baseline: Ki Nos2 over Ki nNOS | 106
C/C(=N\OCCN1CCCCC1)c1cccc(C(F)(F)F)c1 | Tmem97 | binding, [3H]-DTG radioligand binding | rat brain homogenate |  | baseline: Ki over sigma-1 Ki | 39 fold
O=C(c1ccc(SCCF)cc1)C1CCN(C2Cc3ccccc3CC2O)CC1 (single isomer, unassigned; (-)) | Tmem97 | radioligand competition |  | added: [3H]DTG | baseline: Ki sigma-2 over Ki VAChT | > 450
Cc1cc(N)nc(C[C@H]2CNC[C@H]2OCCCCCc2cccc(F)c2)c1 | Nos2 | enzyme activity, inhibitor |  |  | baseline: Ki Nos2 over Ki nNOS | 52
C/C(=N\OCCN(C)Cc1ccccc1)c1ccc(C(F)(F)F)cc1 | Tmem97 | binding, [3H]-DTG radioligand binding | rat brain homogenate |  | baseline: Ki over sigma-1 Ki | 306 fold
Cc1ccc(C[C@H](NC(=O)CN2CCCc3cc4cc(C(=O)NCCNC(=O)CCCC[C@@H]5SC[C@@H]6NC(=O)N[C@@H]65)c(=O)oc4cc32)C(=O)NC/C=C/S(=O)(=O)c2ccccc2)cc1 | Cathepsin S (CTSS, Homo sapiens, UniProt P25774) | enzyme activity, irreversible inhibitor |  |  | baseline: rhodesain kinact/Ki over cathepsin S kinact/Ki | 7.4

A few entries again:
SMILES | target | assay | system | conditions | how to read | selectivity ratio
COc1c(OC2OC(CO)C(O)C(O)C2O)cc2c(c1O)C(=O)c1c(cc(C)c(O)c1OC)C2=O (centres unmarked) | MAOA (Homo sapiens, UniProt P21397) |  |  |  | baseline: IC50 MAO-B over MAO-A | 4.57
